Results of several laboratories.
Every numbered part comes from another study and shows a few of its results, in no order.
Sequence of UniProt P57078 (whole entry, looked up): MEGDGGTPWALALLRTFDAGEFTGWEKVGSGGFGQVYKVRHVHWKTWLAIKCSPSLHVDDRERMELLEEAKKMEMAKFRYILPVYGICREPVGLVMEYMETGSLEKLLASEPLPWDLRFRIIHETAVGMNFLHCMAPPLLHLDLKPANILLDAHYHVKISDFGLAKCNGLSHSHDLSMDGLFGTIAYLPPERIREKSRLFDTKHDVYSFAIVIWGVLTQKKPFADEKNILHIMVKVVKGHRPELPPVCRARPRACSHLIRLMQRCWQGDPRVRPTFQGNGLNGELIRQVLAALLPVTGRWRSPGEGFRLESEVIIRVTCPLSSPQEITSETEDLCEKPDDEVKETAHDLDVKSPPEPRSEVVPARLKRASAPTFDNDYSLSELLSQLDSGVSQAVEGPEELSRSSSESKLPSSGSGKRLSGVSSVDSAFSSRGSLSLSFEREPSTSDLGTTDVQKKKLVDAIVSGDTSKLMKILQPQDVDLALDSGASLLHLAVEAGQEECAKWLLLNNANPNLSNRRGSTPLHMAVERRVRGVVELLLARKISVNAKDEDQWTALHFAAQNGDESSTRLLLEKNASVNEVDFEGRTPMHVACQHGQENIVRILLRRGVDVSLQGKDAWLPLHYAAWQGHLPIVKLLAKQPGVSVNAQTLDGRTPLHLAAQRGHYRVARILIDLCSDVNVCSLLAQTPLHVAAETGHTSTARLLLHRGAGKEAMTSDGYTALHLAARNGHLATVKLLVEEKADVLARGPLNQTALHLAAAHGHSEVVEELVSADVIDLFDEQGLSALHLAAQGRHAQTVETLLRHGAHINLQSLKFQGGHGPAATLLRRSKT
Sequence of UniProt Q8N4C8 (whole entry, looked up): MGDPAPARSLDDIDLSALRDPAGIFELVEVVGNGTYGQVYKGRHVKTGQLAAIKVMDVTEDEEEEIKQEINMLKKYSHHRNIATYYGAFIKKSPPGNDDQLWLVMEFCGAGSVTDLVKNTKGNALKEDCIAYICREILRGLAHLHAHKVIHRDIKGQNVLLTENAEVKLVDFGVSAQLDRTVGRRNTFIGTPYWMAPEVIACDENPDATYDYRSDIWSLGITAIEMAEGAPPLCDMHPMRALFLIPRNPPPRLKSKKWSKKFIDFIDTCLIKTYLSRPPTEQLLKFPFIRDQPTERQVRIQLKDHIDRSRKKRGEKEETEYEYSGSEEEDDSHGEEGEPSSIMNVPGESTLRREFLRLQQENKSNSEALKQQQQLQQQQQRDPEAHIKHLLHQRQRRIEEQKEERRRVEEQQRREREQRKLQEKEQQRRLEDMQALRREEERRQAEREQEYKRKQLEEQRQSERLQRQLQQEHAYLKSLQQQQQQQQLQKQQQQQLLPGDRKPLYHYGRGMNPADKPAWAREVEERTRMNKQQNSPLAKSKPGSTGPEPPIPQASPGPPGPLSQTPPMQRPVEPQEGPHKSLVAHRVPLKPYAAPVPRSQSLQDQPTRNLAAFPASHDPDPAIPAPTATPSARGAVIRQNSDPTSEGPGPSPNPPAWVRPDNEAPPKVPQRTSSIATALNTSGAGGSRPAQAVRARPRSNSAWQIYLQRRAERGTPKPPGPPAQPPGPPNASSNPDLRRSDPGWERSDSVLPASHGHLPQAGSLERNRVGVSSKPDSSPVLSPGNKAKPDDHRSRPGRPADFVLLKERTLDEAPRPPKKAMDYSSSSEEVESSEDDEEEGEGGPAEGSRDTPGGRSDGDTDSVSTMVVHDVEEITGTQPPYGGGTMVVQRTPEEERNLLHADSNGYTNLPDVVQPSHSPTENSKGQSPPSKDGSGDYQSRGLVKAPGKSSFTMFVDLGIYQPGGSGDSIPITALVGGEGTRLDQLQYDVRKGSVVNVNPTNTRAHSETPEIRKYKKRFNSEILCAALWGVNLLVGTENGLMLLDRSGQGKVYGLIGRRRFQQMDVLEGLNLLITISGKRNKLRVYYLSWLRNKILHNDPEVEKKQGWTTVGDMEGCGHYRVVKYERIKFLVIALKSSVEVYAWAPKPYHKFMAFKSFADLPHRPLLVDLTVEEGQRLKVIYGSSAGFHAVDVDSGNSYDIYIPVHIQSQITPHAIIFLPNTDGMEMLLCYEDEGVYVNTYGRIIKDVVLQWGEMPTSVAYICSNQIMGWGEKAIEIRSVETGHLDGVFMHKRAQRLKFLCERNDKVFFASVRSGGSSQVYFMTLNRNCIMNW
Sequence of UniProt Q8TF76 (whole entry, looked up): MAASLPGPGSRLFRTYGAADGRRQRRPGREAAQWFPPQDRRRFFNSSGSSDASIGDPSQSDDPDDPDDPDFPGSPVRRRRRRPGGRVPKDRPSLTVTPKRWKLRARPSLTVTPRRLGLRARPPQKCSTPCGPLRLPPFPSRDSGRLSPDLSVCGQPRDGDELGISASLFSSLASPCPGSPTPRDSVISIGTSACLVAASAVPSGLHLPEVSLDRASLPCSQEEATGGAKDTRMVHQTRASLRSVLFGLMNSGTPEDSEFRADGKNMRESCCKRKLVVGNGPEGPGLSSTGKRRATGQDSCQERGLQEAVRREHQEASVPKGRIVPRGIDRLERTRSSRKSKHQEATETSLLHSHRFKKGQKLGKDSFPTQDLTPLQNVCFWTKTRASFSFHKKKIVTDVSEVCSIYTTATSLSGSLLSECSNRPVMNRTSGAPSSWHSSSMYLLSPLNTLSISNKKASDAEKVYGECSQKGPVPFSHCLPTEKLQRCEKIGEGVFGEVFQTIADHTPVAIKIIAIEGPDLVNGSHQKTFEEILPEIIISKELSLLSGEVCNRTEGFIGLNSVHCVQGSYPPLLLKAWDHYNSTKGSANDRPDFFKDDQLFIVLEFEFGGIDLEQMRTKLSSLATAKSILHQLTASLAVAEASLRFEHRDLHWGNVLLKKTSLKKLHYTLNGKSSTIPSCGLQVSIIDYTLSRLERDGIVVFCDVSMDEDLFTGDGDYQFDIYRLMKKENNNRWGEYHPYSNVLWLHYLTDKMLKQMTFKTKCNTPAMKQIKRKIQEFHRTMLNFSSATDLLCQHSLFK
Sequence of UniProt Q86UX6 (whole entry, looked up): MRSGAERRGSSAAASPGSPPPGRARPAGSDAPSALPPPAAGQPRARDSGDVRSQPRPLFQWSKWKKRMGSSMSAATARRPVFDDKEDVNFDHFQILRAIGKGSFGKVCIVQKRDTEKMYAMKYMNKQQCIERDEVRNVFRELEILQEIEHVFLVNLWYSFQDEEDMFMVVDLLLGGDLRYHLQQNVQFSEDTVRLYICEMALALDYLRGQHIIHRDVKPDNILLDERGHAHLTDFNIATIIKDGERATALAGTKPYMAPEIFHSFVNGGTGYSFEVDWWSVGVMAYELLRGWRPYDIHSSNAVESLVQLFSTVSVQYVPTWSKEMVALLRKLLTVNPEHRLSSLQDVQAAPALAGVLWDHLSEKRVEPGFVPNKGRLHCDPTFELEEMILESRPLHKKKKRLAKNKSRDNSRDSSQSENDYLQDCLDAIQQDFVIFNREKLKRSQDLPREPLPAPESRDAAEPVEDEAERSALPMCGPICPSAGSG
Sequence of UniProt Q13188 (whole entry, looked up): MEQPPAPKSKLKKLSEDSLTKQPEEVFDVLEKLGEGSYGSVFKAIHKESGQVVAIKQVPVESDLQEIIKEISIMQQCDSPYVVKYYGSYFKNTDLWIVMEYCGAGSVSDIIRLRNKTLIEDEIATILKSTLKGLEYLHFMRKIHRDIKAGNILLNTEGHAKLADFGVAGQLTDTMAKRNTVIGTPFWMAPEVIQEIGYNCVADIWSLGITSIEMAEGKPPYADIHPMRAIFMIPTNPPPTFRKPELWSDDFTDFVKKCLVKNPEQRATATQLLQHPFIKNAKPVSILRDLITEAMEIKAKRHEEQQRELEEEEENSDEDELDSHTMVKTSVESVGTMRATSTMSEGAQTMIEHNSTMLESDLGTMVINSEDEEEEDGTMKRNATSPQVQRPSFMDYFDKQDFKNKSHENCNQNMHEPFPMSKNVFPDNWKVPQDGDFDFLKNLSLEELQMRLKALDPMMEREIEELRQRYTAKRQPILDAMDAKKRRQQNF

Block 1
Target: Eukaryotic initiation factor 4A-III (Homo sapiens, UniProt P38919)
Sequence of UniProt P38919 (whole entry, looked up): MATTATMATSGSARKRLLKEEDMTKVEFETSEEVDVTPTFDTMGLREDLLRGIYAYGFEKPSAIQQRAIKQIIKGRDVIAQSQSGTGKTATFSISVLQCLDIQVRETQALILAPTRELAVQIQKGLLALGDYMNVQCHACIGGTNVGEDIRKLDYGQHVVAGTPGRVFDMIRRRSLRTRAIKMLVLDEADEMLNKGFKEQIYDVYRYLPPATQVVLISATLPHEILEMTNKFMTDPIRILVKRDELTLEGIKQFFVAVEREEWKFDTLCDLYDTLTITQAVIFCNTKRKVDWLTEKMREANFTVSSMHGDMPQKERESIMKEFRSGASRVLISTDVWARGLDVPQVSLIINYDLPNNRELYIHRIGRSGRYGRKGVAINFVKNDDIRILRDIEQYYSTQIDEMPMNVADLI
Observed: RNA clamping
Method: fluorescence polarization
Tested at: concentration not given
Setting: mean of two replicates
Added: FAM-labelled poly r(AG)8 RNA
Structure (SMILES) | fluorescence polarization change [mP]
CCOC(=O)[C@H]1[C@@H](c2ccccc2)[C@]2(c3ccc(Br)cc3)Nc3cc(OC)cc(OC)c3[C@@]1(O)[C@H]2O | 6.4
COc1cc(OC)c2c(c1)O[C@@]1(c3ccc(Br)cc3)[C@H](c3ccccc3)[C@@H](C(=O)N(C)C)[C@@H](O)[C@@]21O | 41.2
COC(=O)[C@@H]1[C@@H](c2ccccc2)[C@]2(c3ccc(OC)cc3)Oc3cc(OC)cc(OC)c3[C@@]23NC(C(C)(C)C)=N[C@@]13O | 28.8
COC(=O)[C@@H]1[C@@H](c2ccccc2)[C@]2(c3ccc(OC)cc3)Oc3cc(OC)cc(OC)c3[C@@]23OC(c2ccc(Cl)cc2)=N[C@@]13O | 4.8
COC(=O)[C@H]1[C@H](c2ccccc2)[C@@]2(c3ccc(Br)cc3)Oc3cc(OC)cc(OC)c3[C@]1(O)[C@H]2O | -0.2
COc1ccc([C@@]23Oc4cc(OC)cc(OC)c4[C@]2(O)c2nc(-c4ccc(O)cc4)[nH]c(=O)c2[C@H]3c2ccccc2)cc1 | 9.5
COc1ccc([C@@]23Oc4cc(OC)cc(OC)c4[C@]2(O)c2nc(-c4ccccc4Cl)[nH]c(=O)c2[C@H]3c2ccccc2)cc1 | 25.9
COC(=O)[C@@H]1[C@@H](c2ccccc2)[C@]2(c3ccc(OC)cc3)Oc3cc(OC)cc(OC)c3[C@@]23OC(c2ccccc2)=N[C@@]13O | 4

Block 2
Target: Calcium/calmodulin-dependent protein kinase type II subunit alpha (CAMK2A, Homo sapiens, UniProt Q9UQM7)
Sequence of UniProt Q9UQM7 (whole entry, looked up): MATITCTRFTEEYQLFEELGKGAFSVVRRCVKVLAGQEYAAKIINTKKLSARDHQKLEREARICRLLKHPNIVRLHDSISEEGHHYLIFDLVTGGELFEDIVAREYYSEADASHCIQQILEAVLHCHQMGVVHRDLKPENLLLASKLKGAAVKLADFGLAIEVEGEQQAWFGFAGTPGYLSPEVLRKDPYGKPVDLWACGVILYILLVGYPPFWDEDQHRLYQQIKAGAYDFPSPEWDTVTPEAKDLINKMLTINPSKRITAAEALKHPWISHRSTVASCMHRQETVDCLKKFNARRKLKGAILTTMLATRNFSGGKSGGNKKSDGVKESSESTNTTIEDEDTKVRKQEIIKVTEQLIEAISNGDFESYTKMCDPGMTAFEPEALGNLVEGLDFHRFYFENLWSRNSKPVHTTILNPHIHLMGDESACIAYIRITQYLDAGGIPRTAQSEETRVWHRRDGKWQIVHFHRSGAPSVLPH
Observed: enzyme activity
Mode: inhibitor
Tested at: 10 µM
SMILES | inhibition
COC(=O)[C@]1(C)CC[C@]2(C)CC[C@]3(C)C4=CC=C5C(=CC(=O)C(O)=C5C)[C@]4(C)CC[C@@]3(C)[C@@H]2C1 | -19%
CCCCCOc1ccc(-c2cc(-c3ccc(C(=O)N[C@H]4C[C@@H](O)[C@@H](O)NC(=O)[C@@H]5[C@@H](O)[C@@H](C)CN5C(=O)[C@H]([C@H](O)CC(N)=O)NC(=O)[C@H]([C@H](O)[C@@H](O)c5ccc(O)c(OS(=O)(=O)O)c5)NC(=O)[C@@H]5C[C@@H](O)CN5C(=O)[C@H]([C@@H](C)O)NC4=O)cc3)no2)cc1 | -1%
COc1cc2c(cc1O)C[C@@H]1NCCc3cc(O)c(OC)c-2c31 | -9%
CCN1C[C@]2(COC)[C@H](O)C[C@H](OC)[C@@]34[C@@H]5C[C@@]6(O)[C@H](OC(=O)c7ccccc7)[C@@H]5[C@@](O)([C@@H]([C@H](OC)[C@H]23)[C@@H]14)[C@@H](O)[C@@H]6OC | -14%
Cc1c([C@H](C)[C@@H]2NC[C@@H](C)C[C@H]2O)ccc2c1C[C@H]1[C@H]2CC=C2C[C@@H](O[C@@H]3O[C@H](CO)[C@@H](O)[C@H](O)[C@H]3O)CC[C@@]21C | 42%
NC(=O)CN1CCCC1=O | -8%
Cc1cccc(Cc2c[nH]cn2)c1C | -4%
C/C=C1\C[C@@H](C)[C@](O)(CO)C(=O)OCC2=CCN3CC[C@@H](OC1=O)[C@@H]23 | -36%
C=C[C@@H]1C2=CCOC(=O)C2=CO[C@H]1O[C@@H]1O[C@H](CO)[C@@H](O)[C@H](O)[C@H]1O | 27%

Block 3
Compound: Cn1cncc1[C@](O)(COc1ccc(C#N)cc1-c1ccc(OC(F)(F)F)cc1)c1ccc(C#N)cc1
Observed: cell-free assay
Method: competition with immobilised ligand
Tested at: 1 µM
target | remaining binding [%]
Ribosomal protein S6 kinase alpha-6, C-terminal kinase domain (RPS6KA6, Homo sapiens, UniProt Q9UK32) | 93
STK32C (Homo sapiens, UniProt Q86UX6) | 84
RIOK2 (Homo sapiens, UniProt Q9BVS4) | 83
SBK1 (Homo sapiens, UniProt Q52WX2) | 100
EGFR (Homo sapiens, UniProt P00533, T790M) | 100
MYLK4 (Homo sapiens, UniProt Q86YV6) | 93
MAPK15 (Homo sapiens, UniProt Q8TD08) | 58
MAP2K3 (Homo sapiens, UniProt P46734) | 78
PIK3CA (Homo sapiens, UniProt P42336, Q546K) | 82
Cyclin-dependent kinase 4, with cyclin D3 (CDK4, Homo sapiens, UniProt P11802) | 100
ERBB4 (Homo sapiens, UniProt Q15303) | 81
MINK1 (Homo sapiens, UniProt Q8N4C8) | 94
VRK2 (Homo sapiens, UniProt Q86Y07) | 70
CDK3 (Homo sapiens, UniProt Q00526) | 71
MAP3K6 (Homo sapiens, UniProt O95382) | 76
Non-receptor tyrosine-protein kinase TYK2, JH2 (TYK2, Homo sapiens, UniProt P29597) | 100
CHUK (Homo sapiens, UniProt O15111) | 86
RIPK4 (Homo sapiens, UniProt P57078) | 100

Block 4
SMILES: COc1ccc2c(c[n+](C)c3c4cc5c(cc4ccc23)OCO5)c1OC
Observed: enzyme activity
Mode: inhibitor
Tested at: 0.5 µM
Reference: control
target | remaining activity
TTK (Homo sapiens, UniProt P33981) | 101%
HASPIN (Homo sapiens, UniProt Q8TF76) | 98.8%
PDGFRA (Homo sapiens, UniProt P16234) | 101%
PTK2 (Homo sapiens, UniProt Q05397) | 102%
TSSK1B (Homo sapiens, UniProt Q9BXA7) | 97.3%
SYK (Homo sapiens, UniProt P43405) | 98.8%
PTK6 (Homo sapiens, UniProt Q13882) | 94.4%
STK4 (Homo sapiens, UniProt Q13043) | 98.9%
STK3 (Homo sapiens, UniProt Q13188) | 102%
